Measured values of several laboratories.
Numbered parts are unrelated; each lists some results of a single study. Positions count from the first letter of the parent shown.

Study 1 — target: CCND2, cyclin fold, Cln2 fusion (human); method: yeast growth competition, sequencing; sample: yeast; notes: weak parent motif; reference: not given; reading: higher = stronger binding
Parent: CDC6 docking peptide (human); TLKGRRLVFDNQL
Under “normalised enrichment score”, `F9V` is recorded as -0.023.
`Q12H` — result for “normalised enrichment score”: 0.338.
Under “normalised enrichment score”, `R5C` is recorded as 0.0954.
`L13N` — result for “normalised enrichment score”: 0.38.
Under “normalised enrichment score”, `G4F` is recorded as 0.297.
`V8W` — result for “normalised enrichment score”: 0.299.
For `R6D`, “normalised enrichment score” read 0.071.
Under “normalised enrichment score”, `G4K` is recorded as 0.303.
For `V8Q`, “normalised enrichment score” read -0.0231.
For `K3C`, “normalised enrichment score” read 0.397.
`F9W`: “normalised enrichment score” 0.305.
`D10G` — result for “normalised enrichment score”: -0.224.
For `K3M`, “normalised enrichment score” read 0.438.
Under “normalised enrichment score”, `F9E` is recorded as 0.452.
For `Q12S`, “normalised enrichment score” read -0.154.
`N11T` — result for “normalised enrichment score”: -0.0945.
Under “normalised enrichment score”, `T1C` is recorded as 0.234.
`D10N`: “normalised enrichment score” 0.731.

Study 2 — method: RNA Bind-n-Seq; molecule type: RNA; sample: in vitro; concentration: 365 nM; reference: no-protein control; reading: higher = stronger binding
Target: RNA binding protein fox-1 homolog 2, RRM domain, GST-SBP tag (RBFOX2, Homo sapiens, UniProt O43251-10, residues 100-194)
Notes: natural RNA segment, single round, ends assumed
All sequences stand within: GGGAGUUCUACAGUCCGACGAUC … UGGAAUUCUCGGGUGCCAA
Target sequence (chain): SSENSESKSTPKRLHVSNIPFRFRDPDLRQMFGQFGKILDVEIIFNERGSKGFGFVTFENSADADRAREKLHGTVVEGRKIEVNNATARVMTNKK
`UAGUUUUAUAAAGACAAACCGAUUGUAGCCAAAUGACACCAUAUUUAAUAAAAUUUAGUCUGAAGUGUGUACUGUGUUUUGUGUUGCCCGAUAUUAAAACCAAACUUUUG`: “RBNS enrichment (R)” 0.991.
`GCCAGUGCACGGACCGAUUUGUAUCUGCUCAAUCUCUGUUGCACCUGAGGGGGAAAAAACAGUUCAACUGCUUACUCCCAAAACAGCCUUUUUGUAAUUUAUUUUUUAAG` — result for “RBNS enrichment (R)”: 1.05.
`AACUGCAAUCUGAUUGAUUAUAUUACAGAAUACAUACAAAAAAACAAAGUUGUCUUACCUGUCAGUGUAUGAAGCACUUUGCUCCUUAAGACAGACACCUUGGAACUUUC`: “RBNS enrichment (R)” 0.348.
Under “RBNS enrichment (R)”, `UCUGCAAGGGAAUUCUUGUGUGCUGCUUUCCAUUUGACACCGCAGUUCUGUUCAGCCAUCAGAAGAGAGACAAGGAAUUAAAAAUUUCUUUUUAAUCCUGUUACCAAAUA` is recorded as 0.326.
Under “RBNS enrichment (R)”, `AGACCGUGCCACCACAUGCCAGGUUAUCAAGCACCAGCAGCUGAUGGAACAGGCUGUGGCCCCUGAGUCAUCUGAAACCUUGACAGACAGUGAGACAAAUGGAAGUACUC` is recorded as 0.272.
Under “RBNS enrichment (R)”, `CCGACUCCUCCCUGAGCCAGCCUCCGCUCAGUGUGGCUCCUCAGCCCACAGAGGGGAGGGAGCAUGGGGCCAGGUGCCAGUCAUCUGUGAAGCUAGGGCGCCUACCCCCC` is recorded as 0.8.
`GGCCCAGAGUCUGAAGAAAUGGCACAGGGACAGUGAAUGGUAGUGUUGCCACCCUGUGCUGAGGCCUGAGGCCUCUUCCUCAGCUUUAUCUCCCUUUCCUUCACUCAAGG` — result for “RBNS enrichment (R)”: 0.581.
`CCCCUCCAGCUUCAGCCUCCAGCUUUAACUUCUGUCUGCUCCUAAUGGGGGCCCAAAGCUCAGGGCUGGGGAGCCUGGGGUCCCCACUUGAAUCUCCAGCAGGAGGGUCC`: “RBNS enrichment (R)” 0.49.

Study 3 — method: aptamer microarray, sandwich; molecule type: DNA with 2'F-ANA; sample: in vitro; concentration: 200 nM; together with: Cy3 exosite-II aptamer, 400 nM; reading: higher = stronger binding; oligonucleotide: GGTTGGTGTGGTTGG
Target: Prothrombin, mature alpha-thrombin (F2, Homo sapiens, UniProt P00734)
Notes: whole 15-mer aptamer, many near background
Under “mean fluorescence intensity”, `2'F-ANA at 2 6 7 10` is recorded as 204 a.u.
For `2'F-ANA at 1 2 3 6 7 10 13 14`, “mean fluorescence intensity” read 76.4 a.u.
For `2'F-ANA at 3 6 8 9 13 14 15`, “mean fluorescence intensity” read 473 a.u.
`2'F-ANA at 1 3 5 7 10 12 14 15`: “mean fluorescence intensity” 45.3 a.u.
`2'F-ANA at 1 2 6 7 8 9 10 11 12 13 14` — result for “mean fluorescence intensity”: 50.9 a.u.
Under “mean fluorescence intensity”, `2'F-ANA at 2 4 5 9 11 12 13` is recorded as 78.9 a.u.
For `2'F-ANA at 2 7 9 11 15`, “mean fluorescence intensity” read 339 a.u.
`2'F-ANA at 1 2 4 5 6 8 9`: “mean fluorescence intensity” 76.2 a.u.
For `2'F-ANA at 1 2 3 6 7 9 12 13`, “mean fluorescence intensity” read 287 a.u.
`2'F-ANA at 1 2 3 4 8 12 13`: “mean fluorescence intensity” 333 a.u.
`2'F-ANA at 1 2 7 10 14 15` — result for “mean fluorescence intensity”: 46.6 a.u.
`2'F-ANA at 1 4 7 8 9 11 12 13 14` — result for “mean fluorescence intensity”: 53.2 a.u.
`2'F-ANA at 1 2 4 5 6 7 11 12 13 14 15` — result for “mean fluorescence intensity”: 105 a.u.
For `2'F-ANA at 5 6 9 10 14`, “mean fluorescence intensity” read 44.9 a.u.
For `2'F-ANA at 5 6 7 8 12`, “mean fluorescence intensity” read 198 a.u.
`2'F-ANA at 3 4 6 7 9 12 14`: “mean fluorescence intensity” 290 a.u.
For `2'F-ANA at 4 5 7 9 11 12`, “mean fluorescence intensity” read 115 a.u.
For `2'F-ANA at 3 7 10 13 14`, “mean fluorescence intensity” read 501 a.u.

Study 4 — method: DHFR PCA, deep sequencing; sample: yeast; together with: (+)-ABA 17 µM; reference: wild-type fitted maximum; reading: higher = stronger binding
Target: ABI1, truncated, D143A, DHFR fusion (Arabidopsis thaliana)
Notes: methotrexate growth selection, single substitutions
Parent: PYL1, truncated, DHFR fusion (Arabidopsis thaliana); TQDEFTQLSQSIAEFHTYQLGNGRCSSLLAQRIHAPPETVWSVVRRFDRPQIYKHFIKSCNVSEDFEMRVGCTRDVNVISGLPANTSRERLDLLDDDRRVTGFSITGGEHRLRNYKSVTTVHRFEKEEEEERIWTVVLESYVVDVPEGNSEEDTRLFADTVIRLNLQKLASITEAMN; partner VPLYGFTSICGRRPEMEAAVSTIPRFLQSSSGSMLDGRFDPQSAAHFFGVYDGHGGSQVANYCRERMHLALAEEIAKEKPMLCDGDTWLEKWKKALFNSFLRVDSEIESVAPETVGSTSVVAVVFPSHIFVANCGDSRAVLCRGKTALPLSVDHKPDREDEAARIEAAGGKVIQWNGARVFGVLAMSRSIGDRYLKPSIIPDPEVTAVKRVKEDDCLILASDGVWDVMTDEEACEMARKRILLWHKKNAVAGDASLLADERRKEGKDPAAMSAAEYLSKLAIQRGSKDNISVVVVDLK
`I105Q` — result for “relative binding score”: -25.6%.
Under “relative binding score”, `S150Q` is recorded as 38.2%.
`A158M`: “relative binding score” 55.6%.
`C60Q` — result for “relative binding score”: -5.53%.
`S11E` — result for “relative binding score”: 92.3%.
`R90D` — result for “relative binding score”: -20.6%.
`V44Q`: “relative binding score” -22.3%.
`S117Q` — result for “relative binding score”: 27.8%.
`R69Y` — result for “relative binding score”: 56.7%.
Under “relative binding score”, `T106N` is recorded as 33.6%.
`V137L` — result for “relative binding score”: 28.1%.
For `S42G`, “relative binding score” read 80.2%.
Under “relative binding score”, `R155H` is recorded as 24%.
`I79R` — result for “relative binding score”: 54.7%.
`S150A`: “relative binding score” 41%.
For `F124W`, “relative binding score” read 98.8%.
`P50N` — result for “relative binding score”: 5.5%.
`T173K` — result for “relative binding score”: -5.42%.
Under “relative binding score”, `E4T` is recorded as 81.1%.

A few entries again (study 1):
Under “normalised enrichment score”, `R5C` is recorded as 0.0954.
`L13N` — result for “normalised enrichment score”: 0.38.
Under “normalised enrichment score”, `G4F` is recorded as 0.297.
`V8W` — result for “normalised enrichment score”: 0.299.
For `R6D`, “normalised enrichment score” read 0.071.
Under “normalised enrichment score”, `G4K` is recorded as 0.303.
For `V8Q`, “normalised enrichment score” read -0.0231.
